Measured values from different studies.
Numbered parts are unrelated; each lists some results of a single study. Substitutions count along the parent as printed.

Sample 1
Target: CCND2, cyclin fold, Cln2 fusion (human)
Method: yeast growth competition, sequencing
Medium: yeast
Notes: strong parent motif
Relative to: not given
Direction: higher = stronger binding
Starting sequence: PKN2 docking peptide (human); VSAVRKLDFSDTM
| Change | normalised enrichment score |
| --- | --- |
| VSAVRKLWFSDTM [D8W] | 0.194 |
| VSAVRVLDFSDTM [K6V] | 2.18 |
| VSAVRKYDFSDTM [L7Y] | 0.357 |
| VSAVRKLDFSDFM [T12F] | 3.55 |
| VSAVRKLDHSDTM [F9H] | -0.0533 |
| VEAVRKLDFSDTM [S2E] | 0.969 |
| VSAVRKLDASDTM [F9A] | 0.0316 |
| VSFVRKLDFSDTM [A3F] | 0.191 |
| VSARRKLDFSDTM [V4R] | 3.69 |
| VSAVRKLCFSDTM [D8C] | 1.62 |
| VSAVVKLDFSDTM [R5V] | 0.75 |
| VSAVRKLDWSDTM [F9W] | 1.03 |
| VSQVRKLDFSDTM [A3Q] | 0.276 |
| VSAVRPLDFSDTM [K6P] | -0.0795 |
| VSGVRKLDFSDTM [A3G] | 0.533 |
| VSAVRKLGFSDTM [D8G] | 0.363 |
| VTAVRKLDFSDTM [S2T] | 3.29 |
| VSAVRKKDFSDTM [L7K] | 0.364 |
| VHAVRKLDFSDTM [S2H] | 2.53 |
| VSAVRKEDFSDTM [L7E] | 0.0937 |
| VFAVRKLDFSDTM [S2F] | 1.14 |
| VSHVRKLDFSDTM [A3H] | 0.585 |
| VSAVRKLDFYDTM [S10Y] | 2.23 |
| VSAVRKLNFSDTM [D8N] | 2.47 |
| VSAVRKLDFSDRM [T12R] | 3.41 |

Sample 2
Target: Runt-related transcription factor 1, full length (RUNX1, Homo sapiens, UniProt Q01196-8, residues 1-480)
Method: protein-binding microarray
Form: hairpin DNA
Medium: in vitro
Concentration: not given
Notes: whole hairpin DNA, median over replicate spots
Relative to: not given
Direction: higher = stronger binding
| Strand | median fluorescence [a.u.] |
| --- | --- |
| GAGGCCCAACCGGAACAGCCTCCTGGCTGTTCCGGTTGGGCCTCACACTC | 1780 |
| GAGGCCTGTTGCGGTCGGCCTCCTGGCCGACCGCAACAGGCCTCACACTC (5mC at 28) | 5450 |
| GAGGCCTGTCGCGGCTGGCCTCCTGGCCAGCCGCGACAGGCCTCACACTC (5mC at 15) | 1870 |
| GAGGCCTGTTGTGCGTGGCCTCCTGGCCACGCACAACAGGCCTCACACTC (5mC at 14 30) | 1800 |
| GAGGCCTGTCGCGGTTGGCCTCCTGGCCAACCGCGACAGGCCTCACACTC (5mC at 10 32 34) | 1950 |
| GAGGCCCGTCGCGGTTGGCCTCCTGGCCAACCGCGACGGGCCTCACACTC (5mC at 7 37) | 2640 |
| GAGGCCCACGCGCAACAGCCTCCTGGCTGTTGCGCGTGGGCCTCACACTC (5mC at 9 35) | 1800 |
| GAGGCCTGTTGCGCTTGGCCTCCTGGCCAAGCGCAACAGGCCTCACACTC | 1660 |
| GAGGCCCAACCGCAACAGCCTCCTGGCTGTTGCGGTTGGGCCTCACACTC (5mC at 10) | 1930 |
| GAGGCCTGTCGCGGTTGGCCTCCTGGCCAACCGCGACAGGCCTCACACTC (5mC at 42) | 2690 |
| CTCAGTTCTGTGGGCTGGACTCCTGTCCAGCCCACAGAACTGAGACACTC (5mC at 32) | 1750 |
| GAGGCCTGTTCGGGTTGGCCTCCTGGCCAACCCGAACAGGCCTCACACTC | 1760 |
| CTCAGTTCTGTGGGCTGGACTCCTGTCCAGCCCACAGAACTGAGACACTC | 1940 |
| GAGGCCTGTCGCGCTTGGCCTCCTGGCCAAGCGCGACAGGCCTCACACTC (5mC at 14) | 1650 |
| GAGGCCCGTTGCGGTTGGCCTCCTGGCCAACCGCAACGGGCCTCACACTC | 6320 |
| GAGGCCTTTTGTGGTTGGCCTCCTGGCCAACCACAAAAGGCCTCACACTC | 3570 |
| GAGGCCTGCCGCGGTTGGCCTCCTGGCCAACCGCGGCAGGCCTCACACTC | 2480 |

Sample 3
Target: JUND, bZIP domain (human)
Method: DHFR protein complementation
Medium: yeast
Notes: single substitutions, most at no-binding floor
Relative to: wild-type JUN-FOS pair
Direction: higher = stronger binding
Starting sequence: JUN, bZIP domain (human); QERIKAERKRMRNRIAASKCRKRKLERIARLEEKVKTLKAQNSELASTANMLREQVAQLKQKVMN; partner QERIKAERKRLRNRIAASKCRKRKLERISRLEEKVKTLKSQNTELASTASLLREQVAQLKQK
| Change | binding fitness [natural log] |
| --- | --- |
| S47N | -0.529 |
| K39I | -0.775 |
| S47R | -0.483 |
| R30D | -0.657 |
| S47Q | -0.527 |
| S43Y | -0.843 |
| A29K | -0.694 |
| E32M | -1.13 |
| Q58R | -0.881 |
| E44S | -0.972 |
| E32K | -0.854 |
| S43D | -0.385 |
| A29Y | -1.06 |
| S43I | -0.538 |
| Q41M | -0.776 |
| A49G | -1.03 |
| K39G | -1.12 |
| V35M | -1.15 |
| E44I | -0.823 |
| A57V | -0.911 |
| A40R | -0.633 |
| E33I | -1.18 |
| K39L | -0.621 |
| K34S | -0.592 |
| E32S | -1.19 |

Sample 4
Target: Centromere-binding protein 1, full length, N-terminal tag (CBF1, Saccharomyces cerevisiae, UniProt P17106, residues 1-351)
Chain of UniProt P17106 (whole entry, looked up): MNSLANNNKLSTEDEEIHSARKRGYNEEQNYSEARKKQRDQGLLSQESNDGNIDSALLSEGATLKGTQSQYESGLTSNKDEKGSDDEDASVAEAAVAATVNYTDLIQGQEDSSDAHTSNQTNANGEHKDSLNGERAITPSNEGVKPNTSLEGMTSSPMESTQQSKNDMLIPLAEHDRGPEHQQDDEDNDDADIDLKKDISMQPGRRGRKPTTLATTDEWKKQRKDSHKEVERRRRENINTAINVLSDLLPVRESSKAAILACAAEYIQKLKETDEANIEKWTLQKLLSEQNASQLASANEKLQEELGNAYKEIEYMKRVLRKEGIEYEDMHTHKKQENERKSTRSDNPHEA
Method: protein-binding microarray
Form: double-stranded DNA, one strand shown
Medium: in vitro
Concentration: 0.8 µM
Notes: whole 60-bp probe, no competitor
Direction: higher = stronger binding
Constant ends, left off below: … GTCTTGATTCGCTTGACGCTGCTG
| Strand | fluorescence intensity [a.u.] |
| --- | --- |
| CCTAACTACTATAATCACGACTAATAGCTTCGTACA | 574 |
| GAAATGAGAAGAACCCACGAAGAGATCGATATTTAG | 484 |
| GAAGAAAGCTTGCATCATGAAATGAAGGATTTTTAG | 499 |
| GAACTTTTAGTTAATCAGGTGTGAGGTGGAATGTAG | 982 |
| CTACCTCGGAAAAACCTCCACGTGTTAGGTTATTTC | 7860 |
| GAACCAGTCAAGTTTTCCACCACCTTGACCCTTTAG | 519 |
| CTAAAAAACAGTCATCAGGTGTAATAGAAGCTATTC | 653 |
| CTACCATATTAATAAGACCTGATGCGATTCCGGTTC | 490 |
| CTAATTAATTGCAATATCATGATGTTATAGAGTTTC | 554 |
| CCTAACTACTATAAACACATGCCATAGCTTCGTACA | 601 |
| GAAATTTTTTTTCACCTGTTCATTTTTTTTTTTTAG | 640 |
| CTACTACCGTCAAATATACACGTGTATTCACTGTTC | 4620 |
| GAACCACTAGGGCTGGTCGTGGGGTACGTGGGGTAG | 495 |
| CTAGATTTTGGAAGTTTCACGATATCGATAATGTTC | 553 |
| TGTACGAAGCTATCACATGACATTATAGTAGTTAGG | 4570 |
| GAACTTCCTTAGCCTCACGTTTTTTTGTTCGCTTAG | 600 |
| GAAACGAGGAAACACCACCTGCCTCTATCCATATAG | 541 |
| CTACGTTCAAGCTATTCACCTGTTACAGCAGTATTC | 539 |
| CTAACAGGACCGCATCACGTCAGAATAGTTTTTTTC | 543 |
| CTATAATTGATTGGGCACCACGTAAATTCTTGATTC | 502 |

Sample 5
Target: RNA binding protein fox-1 homolog 2, RRM domain, GST-SBP tag (RBFOX2, Homo sapiens, UniProt O43251-10, residues 100-194)
Method: RNA Bind-n-Seq
Form: RNA
Medium: in vitro
Concentration: 365 nM
Notes: natural RNA segment, single round, ends assumed
Relative to: no-protein control
Direction: higher = stronger binding
Constant ends, left off below: GGGAGUUCUACAGUCCGACGAUC … UGGAAUUCUCGGGUGCCAA
Construct (chain): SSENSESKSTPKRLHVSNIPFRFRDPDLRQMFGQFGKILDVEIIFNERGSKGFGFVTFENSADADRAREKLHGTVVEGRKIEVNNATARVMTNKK
| Strand | RBNS enrichment (R) |
| --- | --- |
| CAGCUUUAUGUGCAUAGUGCUCAUCUGUAGCUAGGGCACACCAAAGGUCAUAUUUUAACUCUUUAUAGGAAAUGCCUUUAACACAAGUGACUGUAGGUGACUUUCUUGUG | 0.56 |
| CCCACCUCAGCCUCCCGAGUAGCUGGGACUACAGGUGCACACCACCACACCUGGCUAAUUUUUUGUAUUUUUAGUAGAGACAGGGGUUUCUUCCAUGUUGCCCAGGCUGG | 0.546 |
| GGGGCCAGGGAGCUGGAGAUGGCCUCCAGCGUCAGUGCCAAGACUGAGCGGGCCCUCCAGUGUUGUCCAAGGAAAUGUAGAAUCACUUUGUAGAUAUGGAGAUGAAGAAG | 0.516 |
| CAAAGAUCCCACUUAGGAAAGAAGCCCUUUCAAUAGCCAGUAACCAAACUCUCUUUCCCCAUUUCUAUCUCCCAGCCCAGUCACAAAAAUACUCAGCUCCAUCAAGAGGA | 0.849 |
| UCUGCAAGCUGAGGGUGUUUGUUCUAGAUGAGUGUCUCAGGCCACCGGCAACUGCAUGUACCUCCUCCCUUUCUCAUUUCCAAUGAUGUACCCUGUACACGUGUUCAUGC | 2.43 |
| GGUCAGUGUUUACUGUUUUAUAUAUGCCUUCUUUUUCCUGUUUGAGCUUCUCUCUCUGAAGGAUUCUAACAGAACAAAAGCUGCUGAUCAACCUAAGUUGGAAACAGAAA | 0.481 |
| GGUGGCCAGGUCAGCUACUGCCCUUCCCAGAAAGCCCUGGAGGUGACCAUAGCCUGUCACCACCCAACAUCACCACGGGCUGGGUUUUGUGUUUCACAUUGGGUAGUAUG | 0.515 |
| UGCAAUUAUGAUACUCUGAGAUUUGCUGUUGUGCUUAAAGACAAAAGUCUGGACUCAGCCACAAACUACUACAGCCUGUCCACCUGAAAUCUUGACUUACCCAGUCCCCA | 0.321 |
| CAUGAUCCAGGGAAUGAAAAGAAAUUUGACCCUGGAUUAGUUUCUUUGUCGGCGCUGAGGAACACUGCUUUUUCACAAAGUUCCCCCGGGAUAGAAUGGCUGUCCAGUCU | 0.243 |
| UAUUAUAUUCUUUAAACUUACUGUUUUACAAAAUUGAGCUCAUCGUAAAUGUCUAGUCUUCUCACAUAGAGAUUAACCAACAAACUUGUGUGGCUGACUUUUGUGUAAGA | 0.473 |
| UUAGGCCUCUUGUUCACAUCAAAAGAUAUUGGUGUCAGAAUACCAGCAUUUUCCUGCCAUGCAAAGGAUUAAAACUUAGUUUACACUAUGUGGUUACAAAUAUAUGUCAA | 0.495 |
| UUAGGUUUAUACUUAGAUGGUUGUUCAGUAAGUUUAUAGAGUUGUGCAACUAUCACAACCAAUGUUAGAACAACUCAAAAAAAAAAAAAAUCUUAUUCCAGUUUGCAAUU | 0.87 |

For quick reference, copied from above (sample 3):
| Change | binding fitness [natural log] |
| --- | --- |
| E44S | -0.972 |
| K39L | -0.621 |
| A29K | -0.694 |
| A57V | -0.911 |
| S47N | -0.529 |
| V35M | -1.15 |
| Q58R | -0.881 |
| A40R | -0.633 |
| S43D | -0.385 |
| A29Y | -1.06 |
